# Results gathered from unrelated publications.
# Every numbered part comes from another study and shows a few of its results, in no order.
# Chain of UniProt Q9UM73 (whole entry, looked up): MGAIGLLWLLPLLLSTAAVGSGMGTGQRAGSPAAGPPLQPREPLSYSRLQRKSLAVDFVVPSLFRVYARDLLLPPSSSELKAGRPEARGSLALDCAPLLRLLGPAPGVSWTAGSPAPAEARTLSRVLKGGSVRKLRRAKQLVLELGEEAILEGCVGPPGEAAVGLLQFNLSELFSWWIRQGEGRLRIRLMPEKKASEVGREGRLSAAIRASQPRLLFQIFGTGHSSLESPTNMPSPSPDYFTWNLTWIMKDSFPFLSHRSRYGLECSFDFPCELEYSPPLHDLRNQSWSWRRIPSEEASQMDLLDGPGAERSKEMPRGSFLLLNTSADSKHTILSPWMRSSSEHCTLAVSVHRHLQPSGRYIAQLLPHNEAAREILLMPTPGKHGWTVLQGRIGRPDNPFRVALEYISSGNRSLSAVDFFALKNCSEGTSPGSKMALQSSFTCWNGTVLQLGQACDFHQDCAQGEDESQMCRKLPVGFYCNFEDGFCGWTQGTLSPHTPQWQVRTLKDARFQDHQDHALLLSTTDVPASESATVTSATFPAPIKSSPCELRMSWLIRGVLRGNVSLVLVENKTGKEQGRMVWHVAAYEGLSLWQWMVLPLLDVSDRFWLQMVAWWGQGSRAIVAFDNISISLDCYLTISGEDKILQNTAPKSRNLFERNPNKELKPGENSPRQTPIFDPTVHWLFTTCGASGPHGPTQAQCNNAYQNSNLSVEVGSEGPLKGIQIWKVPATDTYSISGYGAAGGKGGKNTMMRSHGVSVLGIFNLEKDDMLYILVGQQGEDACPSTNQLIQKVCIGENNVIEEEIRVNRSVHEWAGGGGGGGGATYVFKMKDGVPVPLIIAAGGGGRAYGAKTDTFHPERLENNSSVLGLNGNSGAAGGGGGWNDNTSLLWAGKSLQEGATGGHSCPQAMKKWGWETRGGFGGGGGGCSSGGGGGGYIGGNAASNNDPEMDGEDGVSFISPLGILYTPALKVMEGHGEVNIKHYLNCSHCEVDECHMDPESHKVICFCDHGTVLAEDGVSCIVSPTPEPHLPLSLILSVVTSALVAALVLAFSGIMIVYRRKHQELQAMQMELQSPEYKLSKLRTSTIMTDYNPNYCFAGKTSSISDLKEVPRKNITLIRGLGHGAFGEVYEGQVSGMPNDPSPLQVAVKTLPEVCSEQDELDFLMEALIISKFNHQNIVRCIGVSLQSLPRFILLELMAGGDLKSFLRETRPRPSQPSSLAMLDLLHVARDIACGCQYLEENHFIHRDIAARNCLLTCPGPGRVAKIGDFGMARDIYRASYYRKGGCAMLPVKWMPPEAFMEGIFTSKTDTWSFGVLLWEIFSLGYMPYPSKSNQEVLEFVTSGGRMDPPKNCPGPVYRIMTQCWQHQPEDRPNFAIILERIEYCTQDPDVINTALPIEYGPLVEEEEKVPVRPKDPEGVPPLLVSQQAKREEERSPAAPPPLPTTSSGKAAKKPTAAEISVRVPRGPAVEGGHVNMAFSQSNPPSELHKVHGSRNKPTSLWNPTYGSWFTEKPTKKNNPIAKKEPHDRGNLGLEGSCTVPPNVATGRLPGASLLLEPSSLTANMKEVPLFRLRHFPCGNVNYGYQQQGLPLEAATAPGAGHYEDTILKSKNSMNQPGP

# Set 1 — method: protein-binding microarray; molecule type: double-stranded DNA, one strand shown; matrix: in vitro; concentration: not given; reading: higher = stronger binding
# Target: Protein max, full length (MAX, Homo sapiens, UniProt P61244-2, residues 1-151)
# Setting: k-mer, scored over probes, only values ≥0.25
Oligonucleotide,E-score
CCGTCCCA,0.256
ACGCCTTA,0.277
ATGTGAAT,0.293
GCATGGTA,0.421
ACGCACGG,0.276
CCGCGTGC,0.471
CACGCTGC,0.453
GTGACCAC,0.341

# Set 2 — method: RNAcompete; molecule type: RNA; matrix: in vitro; concentration: 20 nM; setting: 7-mer, probes averaged, single round; reference: mean of 7-mers; reading: higher = stronger binding
# Target: PABPC1L2, full length, GST fusion (mouse, UniProt A0ABA7IW68)
# Target sequence (chain): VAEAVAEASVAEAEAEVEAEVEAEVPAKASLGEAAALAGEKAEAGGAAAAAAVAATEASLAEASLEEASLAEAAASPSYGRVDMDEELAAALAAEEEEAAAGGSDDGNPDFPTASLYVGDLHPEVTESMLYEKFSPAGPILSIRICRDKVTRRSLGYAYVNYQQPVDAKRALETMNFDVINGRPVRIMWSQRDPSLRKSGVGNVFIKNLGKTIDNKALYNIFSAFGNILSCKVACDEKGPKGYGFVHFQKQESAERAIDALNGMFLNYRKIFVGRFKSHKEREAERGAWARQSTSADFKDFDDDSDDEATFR
Oligonucleotide,7-mer Z-score
GCCACAG,-0.0536
UCAUAGC,-0.197
GGUGAAU,-0.0138
UCCUAGC,-0.231
GUGCAUA,-0.0464
AGUGUUG,-0.113
UACGUCA,-0.235
GAGGGGA,0.309

# Set 3 — method: protein-binding microarray; molecule type: double-stranded DNA, one strand shown; matrix: in vitro; concentration: 250 nM; setting: 60-bp whole probe; together with: salmon DNA 0.4 mg/ml; reference: random background probes; reading: higher = stronger binding; all sequences stand within: GCCTAGCAC … GTCTTGATTCGCTTGACGCTGCTG
# Target: Interferon regulatory factor 5, full length, phosphomimetic (IRF5, Homo sapiens, UniProt Q13568-2, residues 1-514, K96S/S451D/S453D/S456D/S462D)
Oligonucleotide,log fluorescence [z-score]
TTAGATTTCGGTATCGGTTAGTGCTAG,10.3
GACGATTTCGAGACTGGAGACGTGCTA,1.29
TTAGGTTCCGGTTTCGGTCAGTGCTAG,9.09
TTAGGACTGGGATTTCGGTTAGTGCTA,2.93
GACGGTATCGGGTATGGGGACGTGCTA,2.35
TTAGATTTCAGTTACGATTAGTGCTAG,2.54
TACGGTATCGACTATCGGGACGTGCTA,3.94
AGGGTCTTCAGGTTCTCCCCGTGCTAG,-0.536

# Further values, each from its own experiment
Structure (SMILES),target,test,conditions,how to read,endpoint,result
CN(C)CCCn1cc(C2=C(c3c[nH]c4ccccc34)C(=O)NC2=O)c2ccccc21,"ALK tyrosine kinase receptor (ALK, Homo sapiens, UniProt Q9UM73)","enzyme activity, inhibitor",0.5 µM,reference: control,remaining activity,87%

# Repeated from above (set 3):
Oligonucleotide,log fluorescence [z-score]
GACGGTATCGGGTATGGGGACGTGCTA,2.35
TTAGATTTCAGTTACGATTAGTGCTAG,2.54
TACGGTATCGACTATCGGGACGTGCTA,3.94
AGGGTCTTCAGGTTCTCCCCGTGCTAG,-0.536
